Assay results collected from several papers.
A part holds a random share of what one study measured.
Chain of UniProt Q96J92 (whole entry, looked up): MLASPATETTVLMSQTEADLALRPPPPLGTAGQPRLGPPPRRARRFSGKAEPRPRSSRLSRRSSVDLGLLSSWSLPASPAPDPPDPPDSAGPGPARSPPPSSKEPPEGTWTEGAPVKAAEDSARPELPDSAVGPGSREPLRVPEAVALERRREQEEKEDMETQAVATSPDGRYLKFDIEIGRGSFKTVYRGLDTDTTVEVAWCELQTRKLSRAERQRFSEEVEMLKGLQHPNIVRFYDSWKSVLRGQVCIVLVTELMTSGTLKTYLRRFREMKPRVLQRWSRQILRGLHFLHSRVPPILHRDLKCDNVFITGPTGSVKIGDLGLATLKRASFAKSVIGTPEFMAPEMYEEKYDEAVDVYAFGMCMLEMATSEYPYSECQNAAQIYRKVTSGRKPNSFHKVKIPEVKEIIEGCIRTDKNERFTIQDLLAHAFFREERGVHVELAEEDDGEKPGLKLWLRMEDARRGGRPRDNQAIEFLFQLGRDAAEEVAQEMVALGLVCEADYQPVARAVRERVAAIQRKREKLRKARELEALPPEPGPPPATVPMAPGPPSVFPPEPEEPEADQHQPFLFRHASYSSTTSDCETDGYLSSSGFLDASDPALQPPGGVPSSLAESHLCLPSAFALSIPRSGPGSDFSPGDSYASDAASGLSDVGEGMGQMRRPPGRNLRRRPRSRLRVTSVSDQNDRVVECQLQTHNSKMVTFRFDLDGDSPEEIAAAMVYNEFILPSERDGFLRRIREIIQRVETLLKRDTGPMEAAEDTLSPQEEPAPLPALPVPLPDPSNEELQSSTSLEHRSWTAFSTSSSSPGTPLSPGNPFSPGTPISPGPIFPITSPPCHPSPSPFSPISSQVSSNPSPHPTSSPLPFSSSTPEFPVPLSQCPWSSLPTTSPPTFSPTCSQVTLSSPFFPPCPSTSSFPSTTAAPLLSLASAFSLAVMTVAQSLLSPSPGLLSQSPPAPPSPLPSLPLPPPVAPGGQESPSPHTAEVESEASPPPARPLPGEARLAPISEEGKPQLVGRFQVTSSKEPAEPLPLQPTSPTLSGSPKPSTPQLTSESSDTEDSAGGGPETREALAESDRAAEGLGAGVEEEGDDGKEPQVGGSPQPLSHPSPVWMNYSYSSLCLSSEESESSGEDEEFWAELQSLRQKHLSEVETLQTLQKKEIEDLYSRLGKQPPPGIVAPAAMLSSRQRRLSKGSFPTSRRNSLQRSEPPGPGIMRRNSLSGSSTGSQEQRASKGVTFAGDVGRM
Chain of UniProt P11021 (whole entry, looked up): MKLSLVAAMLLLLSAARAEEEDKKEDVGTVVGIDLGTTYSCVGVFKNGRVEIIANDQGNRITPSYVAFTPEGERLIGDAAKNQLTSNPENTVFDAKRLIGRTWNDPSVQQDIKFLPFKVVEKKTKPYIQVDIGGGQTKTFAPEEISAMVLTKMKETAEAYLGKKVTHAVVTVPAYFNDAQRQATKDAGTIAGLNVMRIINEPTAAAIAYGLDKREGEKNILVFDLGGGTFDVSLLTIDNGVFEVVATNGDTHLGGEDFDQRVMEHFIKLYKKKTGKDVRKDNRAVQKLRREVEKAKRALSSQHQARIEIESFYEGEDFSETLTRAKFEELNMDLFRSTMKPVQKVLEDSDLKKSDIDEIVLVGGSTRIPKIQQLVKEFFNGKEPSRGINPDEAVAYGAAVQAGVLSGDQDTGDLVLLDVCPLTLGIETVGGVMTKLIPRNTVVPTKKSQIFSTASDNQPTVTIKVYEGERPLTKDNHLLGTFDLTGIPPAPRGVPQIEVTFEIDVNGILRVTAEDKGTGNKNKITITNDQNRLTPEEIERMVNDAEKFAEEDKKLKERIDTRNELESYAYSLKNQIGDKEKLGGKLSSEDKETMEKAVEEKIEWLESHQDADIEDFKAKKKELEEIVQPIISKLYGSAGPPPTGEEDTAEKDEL
Chain of UniProt O75116 (whole entry, looked up): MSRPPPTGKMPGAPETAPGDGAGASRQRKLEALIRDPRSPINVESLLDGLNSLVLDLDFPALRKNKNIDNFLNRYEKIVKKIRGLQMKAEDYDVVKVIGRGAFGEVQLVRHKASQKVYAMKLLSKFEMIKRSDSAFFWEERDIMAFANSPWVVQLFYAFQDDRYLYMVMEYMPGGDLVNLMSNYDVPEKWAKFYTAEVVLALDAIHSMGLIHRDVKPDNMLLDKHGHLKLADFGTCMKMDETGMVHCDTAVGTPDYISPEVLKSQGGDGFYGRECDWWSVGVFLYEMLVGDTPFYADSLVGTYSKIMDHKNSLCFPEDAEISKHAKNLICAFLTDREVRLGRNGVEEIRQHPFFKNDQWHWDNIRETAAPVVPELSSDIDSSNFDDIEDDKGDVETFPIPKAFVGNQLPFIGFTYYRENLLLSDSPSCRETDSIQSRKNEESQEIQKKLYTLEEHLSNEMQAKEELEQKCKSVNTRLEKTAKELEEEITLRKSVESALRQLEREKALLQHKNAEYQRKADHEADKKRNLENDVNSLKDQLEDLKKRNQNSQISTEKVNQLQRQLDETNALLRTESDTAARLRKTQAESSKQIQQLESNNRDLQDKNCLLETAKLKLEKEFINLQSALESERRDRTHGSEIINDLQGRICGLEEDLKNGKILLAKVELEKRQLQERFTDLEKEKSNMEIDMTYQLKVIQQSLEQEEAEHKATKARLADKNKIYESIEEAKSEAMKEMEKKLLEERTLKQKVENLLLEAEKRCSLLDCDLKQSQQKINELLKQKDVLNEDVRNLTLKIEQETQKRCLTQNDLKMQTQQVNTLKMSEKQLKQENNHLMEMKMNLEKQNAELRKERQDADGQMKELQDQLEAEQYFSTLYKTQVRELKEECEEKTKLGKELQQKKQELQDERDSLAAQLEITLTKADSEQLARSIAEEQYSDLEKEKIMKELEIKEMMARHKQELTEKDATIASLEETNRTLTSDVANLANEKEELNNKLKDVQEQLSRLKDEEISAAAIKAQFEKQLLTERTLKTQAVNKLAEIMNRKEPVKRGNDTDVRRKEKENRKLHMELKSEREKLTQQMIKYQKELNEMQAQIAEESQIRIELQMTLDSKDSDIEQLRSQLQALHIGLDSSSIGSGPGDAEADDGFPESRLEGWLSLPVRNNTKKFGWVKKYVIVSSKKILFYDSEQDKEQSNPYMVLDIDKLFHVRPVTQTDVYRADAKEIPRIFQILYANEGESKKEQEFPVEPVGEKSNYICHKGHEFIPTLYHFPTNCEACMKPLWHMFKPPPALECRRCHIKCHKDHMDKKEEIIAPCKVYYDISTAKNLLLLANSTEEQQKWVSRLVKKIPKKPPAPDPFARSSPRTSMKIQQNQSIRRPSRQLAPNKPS
Chain of UniProt P68400 (whole entry, looked up): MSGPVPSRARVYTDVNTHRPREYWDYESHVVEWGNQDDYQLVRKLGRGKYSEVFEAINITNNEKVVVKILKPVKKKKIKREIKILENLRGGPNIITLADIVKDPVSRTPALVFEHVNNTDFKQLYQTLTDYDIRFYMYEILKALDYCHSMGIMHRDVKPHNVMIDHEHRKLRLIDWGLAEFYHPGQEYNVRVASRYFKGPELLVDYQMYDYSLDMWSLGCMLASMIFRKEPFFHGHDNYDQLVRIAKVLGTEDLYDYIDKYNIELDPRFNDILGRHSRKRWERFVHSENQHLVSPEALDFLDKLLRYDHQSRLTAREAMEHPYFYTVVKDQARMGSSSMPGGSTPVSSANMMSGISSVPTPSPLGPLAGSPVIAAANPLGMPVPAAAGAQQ
Chain of UniProt O75822 (whole entry, looked up): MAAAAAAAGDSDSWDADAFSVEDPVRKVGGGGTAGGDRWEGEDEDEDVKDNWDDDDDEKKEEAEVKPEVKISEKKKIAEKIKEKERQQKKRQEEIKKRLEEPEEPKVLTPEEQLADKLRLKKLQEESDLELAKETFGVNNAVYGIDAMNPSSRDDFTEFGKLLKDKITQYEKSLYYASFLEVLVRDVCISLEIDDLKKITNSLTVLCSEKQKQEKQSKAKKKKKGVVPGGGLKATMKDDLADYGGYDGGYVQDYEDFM

Series 1 — method: competition with immobilised ligand; tested at: 1 µM; measurement: remaining binding
SMILES: C[C@@]1(Cc2ccc(C#N)cc2)C(=O)N(c2cc(Cl)cc(Cl)c2)c2ncc(C(=O)NC3(c4nc(C5CCC5)no4)CC3)n21
Receptor tyrosine-protein kinase erbB-4 (ERBB4, Homo sapiens, UniProt Q15303); cell-free assay: 100%
Receptor-type tyrosine-protein kinase FLT3 (FLT3, Homo sapiens, UniProt P36888, K663Q); cell-free assay: 100%
Phosphatidylinositol 3-kinase catalytic subunit type 3 (PIK3C3, Homo sapiens, UniProt Q8NEB9); cell-free assay: 100%
Leukocyte tyrosine kinase receptor (LTK, Homo sapiens, UniProt P29376); cell-free assay: 100%
Cyclin-dependent kinase 11A (CDK11A, Homo sapiens, UniProt Q9UQ88); binding: 100%
Dual serine/threonine and tyrosine protein kinase (DSTYK, Homo sapiens, UniProt Q6XUX3); cell-free assay: 95%
MAP kinase-activated protein kinase 5 (MAPKAPK5, Homo sapiens, UniProt Q8IW41); cell-free assay: 100%
Death-associated protein kinase 3 (DAPK3, Homo sapiens, UniProt O43293); cell-free assay: 94%
Rho-associated protein kinase 2 (ROCK2, Homo sapiens, UniProt O75116); cell-free assay: 100%
Serine/threonine-protein kinase WNK4 (WNK4, Homo sapiens, UniProt Q96J92); cell-free assay: 100%
Tyrosine-protein kinase Blk (BLK, Homo sapiens, UniProt P51451); cell-free assay: 100%
ALK tyrosine kinase receptor (ALK, Homo sapiens, UniProt Q9UM73, C1156Y); cell-free assay: 100%
STE20/SPS1-related proline-alanine-rich protein kinase (STK39, Homo sapiens, UniProt Q9UEW8); cell-free assay: 91%
Cyclin-G-associated kinase (GAK, Homo sapiens, UniProt O14976); cell-free assay: 100%
Casein kinase I isoform epsilon (CSNK1E, Homo sapiens, UniProt P49674); cell-free assay: 100%
Serine/threonine-protein kinase RIO3 (RIOK3, Homo sapiens, UniProt O14730); cell-free assay: 100%
Calcium/calmodulin-dependent protein kinase type IV (CAMK4, Homo sapiens, UniProt Q16566); cell-free assay: 100%
Dual specificity mitogen-activated protein kinase kinase 6 (MAP2K6, Homo sapiens, UniProt P52564); cell-free assay: 80%
Serine/threonine-protein kinase VRK2 (VRK2, Homo sapiens, UniProt Q86Y07); cell-free assay: 100%
Macrophage colony-stimulating factor 1 receptor, autoinhibited (CSF1R, Homo sapiens, UniProt P07333); cell-free assay: 100%
Serine/threonine-protein kinase 32A (STK32A, Homo sapiens, UniProt Q8WU08); cell-free assay: 100%

Series 2 — SMILES: NCc1ccc(Nc2ncc(F)c(Nc3ccccc3)n2)cc1; measurement: IC50
Eukaryotic translation initiation factor 3 subunit J (Homo sapiens, UniProt O75822): > 10 µM
Dual specificity mitogen-activated protein kinase kinase 2 (MAP2K2, Homo sapiens, UniProt P36507): > 10 µM
Trypanosoma brucei kinase Tb427tmp.02.5450; binding, kinobead competition; Trypanosoma brucei lysate: > 10 µM
Trypanosoma brucei protein Tb427tmp.01.1680; binding, kinobead competition; Trypanosoma brucei lysate: > 10 µM
Trypanosoma brucei protein Tb427tmp.01.2460; binding, kinobead competition; Trypanosoma brucei lysate: > 10 µM
protein Tb427tmp.211.1150; kinobead TMT proteomics; Trypanosoma brucei, cell lysate: > 10 µM
Trypanosoma brucei NEK Tb427tmp.02.4530; binding, kinobead competition; Trypanosoma brucei lysate: > 10 µM
Cyclin-T1 (CCNT1, Homo sapiens, UniProt O60563): > 10 µM
protein Tb427tmp.03.0090; kinobead TMT proteomics; Trypanosoma brucei, cell lysate: > 10 µM
Proto-oncogene tyrosine-protein kinase Src (SRC, Homo sapiens, UniProt P12931): > 10 µM
Ephrin type-A receptor 4 (EPHA4, Homo sapiens, UniProt P54764): > 10 µM
Endoplasmic reticulum chaperone BiP (HSPA5, Homo sapiens, UniProt P11021): > 10 µM
Serine/threonine-protein kinase ULK3 (ULK3, Homo sapiens, UniProt Q6PHR2): > 10 µM
Casein kinase II subunit alpha (CSNK2A1, Homo sapiens, UniProt P68400): > 10 µM

Series 3 — cell line: Huh-7; tested at: 10 µM; time: 24 h; measurement: viability
CC(=O)OCC(=O)[C@@]1(O)[C@H](OC(C)=O)C[C@H]2[C@@H]3CCC4=CC(=O)C=C[C@]4(C)[C@@]3(F)[C@@H](O)C[C@@]21C: 99.3%
CC(=O)c1ccc2c(c1)N(CCCN(C)C)c1ccccc1S2: 99.1%
CCCCNc1ccc(C(=O)OCCN(C)C)cc1: 101%
CC[N+](CC)(CC(=O)Nc1c(C)cccc1C)Cc1ccccc1: 98%
Cc1c(OCC(F)(F)F)ccnc1C[S+]([O-])c1nc2ccccc2[nH]1 (stereo not drawn): 94.8%
COC(=O)[C@H]1[C@H]2C[C@@H]3c4[nH]c5cc(OC)ccc5c4CCN3C[C@H]2C[C@@H](OC(=O)c2cc(OC)c(OC)c(OC)c2)[C@@H]1OC: 96.9%
CC(=O)O[C@H]1C[C@@]2(C)[C@@H](C[C@@H](O)[C@H]3[C@@]4(C)CC[C@@H](O)[C@@H](C)[C@@H]4CC[C@@]32C)/C1=C(\CCC=C(C)C)C(=O)O: 95.9%
CC1CCc2cc(F)cc3c(=O)c(C(=O)O)cn1c23 (stereo not drawn): 102%
CN(C)CCc1c[nH]c2ccc(C[C@H]3COC(=O)N3)cc12: 101%
CC(C)C(=O)Nc1ccc([N+](=O)[O-])c(C(F)(F)F)c1: 99%

Series 4 — observed: enzyme activity; action: inhibitor; tested at: 0.5 µM; relative to: control; measurement: remaining activity
Target: RAC-alpha serine/threonine-protein kinase (AKT1, Homo sapiens, UniProt P31749)
Chain of UniProt P31749 (whole entry, looked up): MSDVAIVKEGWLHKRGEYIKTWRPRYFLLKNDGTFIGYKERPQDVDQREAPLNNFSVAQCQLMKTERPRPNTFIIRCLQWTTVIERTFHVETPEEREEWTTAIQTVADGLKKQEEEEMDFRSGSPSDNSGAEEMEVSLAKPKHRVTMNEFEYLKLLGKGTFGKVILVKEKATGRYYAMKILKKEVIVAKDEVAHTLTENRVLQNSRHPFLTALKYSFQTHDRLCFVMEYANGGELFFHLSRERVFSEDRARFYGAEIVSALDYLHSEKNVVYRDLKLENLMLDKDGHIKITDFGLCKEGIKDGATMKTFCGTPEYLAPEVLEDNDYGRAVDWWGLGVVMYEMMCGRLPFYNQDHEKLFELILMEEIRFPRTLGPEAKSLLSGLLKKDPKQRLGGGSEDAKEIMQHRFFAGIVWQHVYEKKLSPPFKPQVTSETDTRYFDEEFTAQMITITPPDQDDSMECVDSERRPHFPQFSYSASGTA
N#C/C(=C(/N)SC1C=CC=CC1)c1cccc(C(O)c2ccncc2)c1 (stereo not drawn): 104%
CC(C)N(CCC(=O)c1ccc2ccccc2c1)Cc1ccccc1: 100%
N#CC(c1ccnc(NCCc2cccnc2)n1)c1nc2ccccc2s1 (stereo not drawn): 104%
O=C(O)/C=C/c1cc(Br)c(Br)c(Br)c1Br: 97.4%
O=C1NC(=O)/C(=C/c2ccc3c(c2)OC(F)(F)O3)S1: 98.2%
COc1cc2c(Nc3ccc(Br)cc3F)ncnc2cc1OCC1CCN(C)CC1: 94.7%
O=C(c1ccccc1)c1ccc(N2CCOCC2)cc1O: 102%
CCN(CC)CCCCN1c2ccccc2Oc2ccc(Cl)cc21: 112%
CC(C)(C)c1nc2c3cc[nH]c(=O)c3c3cc(F)ccc3c2[nH]1: 86.8%
O=Nc1c(-c2c(O)[nH]c3ccccc23)[nH]c2ccccc12: 97.8%
Clc1ccc(Nc2nnc(Cc3ccncc3)c3ccccc23)cc1: 103%
c1cc(-c2cnn3cc(-c4ccc(OCCN5CCCCC5)cc4)cnc23)ccn1: 104%
CC(C)n1cnc2c(Nc3cccc(Cl)c3)nc(NCCO)nc21: 103%
O=C1c2ccccc2-c2nc3nnnn3nc21: 79.7%
C[C@@H](N)[C@H]1CC[C@H](C(=O)Nc2ccncc2)CC1: 86.2%
FC(F)(F)c1ccc(/C=C/c2nc(COc3ccc(CCCCn4ccnn4)cc3)co2)cc1: 93.2%
COc1cc2c(N3CCN(C(=O)Nc4ccc(OC(C)C)cc4)CC3)ncnc2cc1OCCCN1CCCCC1: 102%
NC(=O)c1ccc(-c2nc(-c3ccc4c(c3)OCCO4)c(-c3ccccn3)[nH]2)cc1: 103%
CNc1cc2c(Nc3cccc(Br)c3)ncnc2cn1: 98.8%
Nc1nc(Nc2ccc(S(N)(=O)=O)cc2)nn1C(=S)Nc1c(F)cccc1F: 103%
O=c1c(-c2ccc(F)cc2)c(-c2ccncc2)[nH]n1-c1ccc(Cl)cc1: 96.4%

Some of these lines once more (series 1):
Serine/threonine-protein kinase WNK4 (WNK4, Homo sapiens, UniProt Q96J92); cell-free assay: 100%
Macrophage colony-stimulating factor 1 receptor, autoinhibited (CSF1R, Homo sapiens, UniProt P07333); cell-free assay: 100%
ALK tyrosine kinase receptor (ALK, Homo sapiens, UniProt Q9UM73, C1156Y); cell-free assay: 100%
Serine/threonine-protein kinase 32A (STK32A, Homo sapiens, UniProt Q8WU08); cell-free assay: 100%
Dual serine/threonine and tyrosine protein kinase (DSTYK, Homo sapiens, UniProt Q6XUX3); cell-free assay: 95%
Calcium/calmodulin-dependent protein kinase type IV (CAMK4, Homo sapiens, UniProt Q16566); cell-free assay: 100%
Leukocyte tyrosine kinase receptor (LTK, Homo sapiens, UniProt P29376); cell-free assay: 100%
Rho-associated protein kinase 2 (ROCK2, Homo sapiens, UniProt O75116); cell-free assay: 100%
